Results pooled from the literature.
Every numbered part comes from another study and shows a few of its results, in no order. Changes are numbered by the printed parent chain.

Series 1
Target: TAR DNA-binding protein 43, full length, His tag (TARDBP, Homo sapiens, UniProt Q13148, residues 1-414)
Technique: RNA Bind-n-Seq
Molecule type: RNA
Medium: in vitro
Concentration: 20 nM
Setting: 6-mer, flanks averaged, single round
Added: 150 mM LiCl
Baseline: input library
Direction: higher = stronger binding
Quantity: 6-mer enrichment (R)
CUGGAU: 0.892
UCUGUA: 0.978
AACGAG: 0.896
GCAACA: 0.866
CAAAAC: 0.803
CACCAG: 0.896
CGAGCU: 0.859
CCACAC: 0.926
CCGCAA: 0.879
GUAUAU: 1.06
CUUCGA: 0.802
GCUGGU: 1.06
GUUUGA: 1.21
UCUUCC: 0.901
AUACUG: 0.865
CCAGUA: 0.909
GCUCGA: 0.836

Series 2
Target: ABI1, truncated, D143A, DHFR fusion (Arabidopsis thaliana)
Technique: DHFR PCA, deep sequencing
Medium: yeast
Setting: methotrexate growth selection, single substitutions
Added: (+)-ABA 710 µM
Baseline: wild-type fitted maximum
Direction: higher = stronger binding
Quantity: relative binding score
Starting sequence: PYL1, truncated, DHFR fusion (Arabidopsis thaliana); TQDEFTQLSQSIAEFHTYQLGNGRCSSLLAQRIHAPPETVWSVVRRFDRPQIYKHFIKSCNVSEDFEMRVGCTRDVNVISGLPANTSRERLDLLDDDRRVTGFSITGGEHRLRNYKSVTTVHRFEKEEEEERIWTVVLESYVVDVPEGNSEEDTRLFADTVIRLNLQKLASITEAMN
E152A: 101%
E147Y: 96.5%
V136K: 50.1%
D65Y: 96.7%
Q31W: 76.2%
R46A: 100%
K116C: 90.6%
S80C: 64.9%
I133P: 109%
D92Q: 86.6%
C60F: 33.2%
K168M: 94.6%
S87T: 91.4%
C25F: 87.8%
A170I: 32%

Series 3
Target: Histone acetyltransferase KAT6A, winged helix 2, GST fusion (KAT6A, Homo sapiens, UniProt Q92794, residues 85-181)
Technique: protein binding microarray
Molecule type: double-stranded DNA, one strand shown
Medium: in vitro
Concentration: not given
Setting: 8-mer, flanks averaged, mean of 2 arrays, mostly near background
Baseline: not given
Direction: higher = stronger binding
Quantity: E-score
Construct (chain): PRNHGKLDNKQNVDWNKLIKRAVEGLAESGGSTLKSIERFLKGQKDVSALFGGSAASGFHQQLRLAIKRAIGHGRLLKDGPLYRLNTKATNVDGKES
AGCACCCT: -0.00607
GCCGTAAA: 0.0748
ACGAAGCT: -0.0542
CGTGCTGA: 0.0115
AACTAGAC: 0.000115
AATTAGTA: 0.181
CGCTCGGC: 0.231
TCCATTCA: -0.0269
CCTCTCCA: -0.0225
GCGTGTCA: 0.146
ATTCAAAC: -0.0541
CAACAAAA: 0.223
CTATTGTC: -0.147
CGCCCAAG: -0.0198
TGGGCCAA: -0.0216
GGACAGAC: 0.103
ATTAGAAT: 0.114
ACTGATTG: -0.0989
CCTCAATA: -0.175
CGCCCGAG: 0.109
GCTAGCTA: 0.0718
TACGGTGA: 0.0475
ACGCTGTC: 0.0519
ATATTCTG: -0.214
ACGGGGTG: 0.0532

Series 4
Target: Transcriptional repressor CTCF (CTCF, Homo sapiens, UniProt P49711, residues 1-727, full length assumed)
Chain of UniProt P49711 (whole entry, looked up): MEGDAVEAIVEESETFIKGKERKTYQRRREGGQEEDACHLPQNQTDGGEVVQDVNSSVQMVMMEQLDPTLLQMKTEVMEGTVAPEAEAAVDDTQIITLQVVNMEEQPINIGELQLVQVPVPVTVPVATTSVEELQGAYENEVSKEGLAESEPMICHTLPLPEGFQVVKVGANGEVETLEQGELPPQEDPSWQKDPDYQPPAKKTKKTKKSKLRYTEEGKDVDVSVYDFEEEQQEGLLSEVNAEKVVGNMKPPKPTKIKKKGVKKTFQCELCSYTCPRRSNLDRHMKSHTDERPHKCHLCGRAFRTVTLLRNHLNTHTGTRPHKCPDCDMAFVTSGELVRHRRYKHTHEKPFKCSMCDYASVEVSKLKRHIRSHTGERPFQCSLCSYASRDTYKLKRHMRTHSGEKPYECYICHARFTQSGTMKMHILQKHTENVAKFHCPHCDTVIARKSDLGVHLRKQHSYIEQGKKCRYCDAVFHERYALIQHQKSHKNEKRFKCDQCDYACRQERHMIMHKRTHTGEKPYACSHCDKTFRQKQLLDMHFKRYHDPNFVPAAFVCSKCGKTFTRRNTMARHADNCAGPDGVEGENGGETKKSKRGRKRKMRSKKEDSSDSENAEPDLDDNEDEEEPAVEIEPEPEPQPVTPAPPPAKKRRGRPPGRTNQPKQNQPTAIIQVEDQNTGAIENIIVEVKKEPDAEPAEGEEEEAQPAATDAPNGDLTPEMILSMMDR
Technique: protein-binding microarray
Molecule type: double-stranded DNA, one strand shown
Medium: in vitro
Concentration: not given
Setting: k-mer, scored over probes, only values ≥0.25
Direction: higher = stronger binding
Quantity: E-score
GGATTGCA: 0.292
AATAATCG: 0.272
ATAAAAAG: 0.354
ATGTATAG: 0.264
TAAAAACA: 0.289
TAATTCAA: 0.257
ACGCGCAA: 0.32
AAAAGGCC: 0.285
GGAGTAAA: 0.253
AATGAAGT: 0.263
CCCCGCCA: 0.285
CGTTATTA: 0.278
AGTAATAT: 0.294
GCTATATA: 0.338
CGTATATA: 0.34
CATGGCGC: 0.333
ATATCTAC: 0.328
GCGCCGTA: 0.282
AAATATTG: 0.345
CGCGCATC: 0.28
CACCAGGG: 0.252
CTTATAAC: 0.322
ATATTACC: 0.359
AATGTAAG: 0.255
TATGCGAA: 0.284

Series 5
Target: RNA binding protein fox-1 homolog 2, RRM domain, GST-SBP tag (RBFOX2, Homo sapiens, UniProt O43251-10, residues 100-194)
Technique: RNA Bind-n-Seq
Molecule type: RNA
Medium: in vitro
Concentration: 365 nM
Setting: natural RNA segment, single round, ends assumed
Baseline: no-protein control
Direction: higher = stronger binding
Quantity: RBNS enrichment (R)
Constant ends, left off below: GGGAGUUCUACAGUCCGACGAUC … UGGAAUUCUCGGGUGCCAA
Target sequence (chain): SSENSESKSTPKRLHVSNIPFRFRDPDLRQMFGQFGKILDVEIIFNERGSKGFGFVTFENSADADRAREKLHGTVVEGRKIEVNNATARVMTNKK
CGCCCAACCUUUUACAAAUGGCAUUUUCUUAAUUGAAAAUCCGGGAAGCAGGUGUGAUUACUUUUUUGCUCGUAGAUAUUGUCCUAAGUUGGAAUUCUCCCACUGCCCUA: 0.535
AAGUAUGGGUAAAAAGGCAAGUCACUAGUUUGAGAUGAAAACUAAAAUUUUCAUGGUAAAAUGCCAGCAUGUAUGUACUUGUGUAGUGUGUACUUCUAAACAGAGAAGGC: 21.9
GGGCUGGGCAGGAGGGUGGGGUCUGCUGUGGGUUCAGAGGACUCCACCUCCUGGCUGGUUUACCUGCUGCUGCCCAUUUUCUCUGGGUACUGCUGGCCAGAGGACUUUAG: 0.34
GGGCCUGGAAGUUAUGUUGUUCAAAGAAGCCUGGUGGCAAUAAGGAUCUUCCCACUUUGCCACUGGAUGACUUUGGAUGGGUCACUUGUCCUCAGUUUUUCCUAGUCAUA: 0.157
UCACUUGGAACAUUAGAGCUCCUGAAGCCUGUCUGUCUUAAGACGUUGGGAAAGCCUCGUGUUGAAAGCCGGGGGAGCUUAAAUGAUCCAGGUGGUAGCUAGGGACCGUC: 0.667
AAACUUGUAGGUUCACAUAUUAUUUUGACUAAGGUAUAUGGAUUUCCCCCCACUUACAUAAGUAAACCCAACAUAAGGAGGACCAUUCCUUUUCUUUCAUUCAGAUGACC: 0.532
CUAGCGUAAGCACUGAGGCAGUGUGCAGUGCUCAGGCAGCAGCAAACAUUUCCCGGGGGUGGUUUUGAACCUGCUUGGGUGGUUGUGUGGUGCUGACGCUGCCACUGCCC: 0.253
UCAACAGUAAGCAGCACCUCCAAGACUGUCUCCUUUUGGCCAAUAUCAUAAGAUGGACGCCAUAAUCCUGAGGCCUCCUAGAGGCUGAGGGGGCAACGGUGUGAUCCAGC: 0.228
UUUUUGGUGUGUGUGUGUGUGUAUUGUGCUUAGAAAGGUUGCAGAUUUCAUCUUCACCUACCAAGAGGCGGCCGCCUCCUUGGACAAGCCGCUCAUGGACCAUUAGACUU: 0.4
CACCCUCAUGCCAACUCUGCCCCAGGUCCAGGCCUCUGGGGCUGAUCUCAGGGAAGCCCAGCUCUGAAGCUAGAUUUACUGGACAAAGGGCAGCCUGGAAAGAGACUCCC: 0.332
GAUUUAGCUUUUCUUUUGUUAUAUAAACUGCUAGCCACAAAUUUUAGUUAUGUAAAAGGCUACCCUUGACAAGAAAAGACAUACUGUCAUGUAUUUAUAUUCUAGCAUAG: 0.766
UCCCUUGAGACAAUAUCAUUCCCAUAUACCUCUCAUUGUCUUGGCUUUCUUAUCCAAGACGAGAAGAUAUCAGUCGGAACUGGAUUAUUCCACAGCCUUUUUAUAAACUG: 0.288

Series 6
Target: CCNA2, cyclin fold, Cln2 fusion (human)
Technique: yeast growth competition, sequencing
Medium: yeast
Setting: weak parent motif
Baseline: not given
Direction: higher = stronger binding
Quantity: normalised enrichment score
Starting sequence: AKAP12 docking peptide (human); GSPLKKLFTSTGL
ASPLKKLFTSTGL [G1A]: 1.04
GSPLKKLFTATGL [S10A]: 1.32
GSPLKKLFASTGL [T9A]: 1.6
GSPLKKAFTSTGL [L7A]: -0.265
GSPLKKLFTSTAL [G12A]: 0.21
GAPLKKLFTSTGL [S2A]: 1.71
GSPLRKLLTSTGL [K5R F8L]: 1
